Results of several laboratories.
Protocols differ between the studies behind these lines. Several values in a cell are separate wells, animals, samples, runs or records. ± marks the error that the study gave.
FGFR1: Fibroblast growth factor receptor 1 (FGFR1, Homo sapiens, UniProt P11362)
ESR1: Estrogen receptor (ESR1, Homo sapiens, UniProt P03372)
RPS6KA3: Ribosomal protein S6 kinase alpha-3 (RPS6KA3, Homo sapiens, UniProt P51812)
APP amyloid-beta peptide: Amyloid-beta precursor protein, amyloid-beta peptide (APP, Homo sapiens, UniProt P05067)
CD28 with CD80: CD28, with CD80 (Homo sapiens, UniProt P10747)
IDO1: Indoleamine 2,3-dioxygenase 1 (IDO1, Homo sapiens, UniProt P14902)
Grin2a with GluN1: Glutamate receptor ionotropic, NMDA 2A, with GluN1 (Grin2a, Rattus norvegicus, UniProt Q00959)
SYK with FCER1G: Tyrosine-protein kinase SYK, with FCER1G (SYK, Homo sapiens, UniProt P43405)

The chains behind the UniProt entries cited, without tags or fusion partners. Where a name states a change or a piece, a line headed by the entry shows the natural chain unless it says otherwise. Residues count along the entry.
UniProt P03372, whole entry: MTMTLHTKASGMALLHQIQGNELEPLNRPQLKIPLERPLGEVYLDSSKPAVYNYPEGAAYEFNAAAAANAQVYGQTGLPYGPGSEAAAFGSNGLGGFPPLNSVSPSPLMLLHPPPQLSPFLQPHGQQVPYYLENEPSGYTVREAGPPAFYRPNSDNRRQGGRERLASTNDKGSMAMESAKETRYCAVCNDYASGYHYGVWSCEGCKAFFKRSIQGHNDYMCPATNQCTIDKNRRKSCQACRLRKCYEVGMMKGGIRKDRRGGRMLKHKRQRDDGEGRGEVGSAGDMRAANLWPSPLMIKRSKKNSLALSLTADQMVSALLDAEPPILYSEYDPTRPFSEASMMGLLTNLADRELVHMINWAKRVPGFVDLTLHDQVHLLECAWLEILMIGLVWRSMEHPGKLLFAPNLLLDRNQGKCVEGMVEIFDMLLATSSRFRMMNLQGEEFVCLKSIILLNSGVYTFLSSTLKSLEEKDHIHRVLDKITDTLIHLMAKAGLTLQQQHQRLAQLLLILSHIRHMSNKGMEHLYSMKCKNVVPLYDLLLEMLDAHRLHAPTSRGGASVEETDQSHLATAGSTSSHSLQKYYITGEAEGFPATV
UniProt P51812, whole entry: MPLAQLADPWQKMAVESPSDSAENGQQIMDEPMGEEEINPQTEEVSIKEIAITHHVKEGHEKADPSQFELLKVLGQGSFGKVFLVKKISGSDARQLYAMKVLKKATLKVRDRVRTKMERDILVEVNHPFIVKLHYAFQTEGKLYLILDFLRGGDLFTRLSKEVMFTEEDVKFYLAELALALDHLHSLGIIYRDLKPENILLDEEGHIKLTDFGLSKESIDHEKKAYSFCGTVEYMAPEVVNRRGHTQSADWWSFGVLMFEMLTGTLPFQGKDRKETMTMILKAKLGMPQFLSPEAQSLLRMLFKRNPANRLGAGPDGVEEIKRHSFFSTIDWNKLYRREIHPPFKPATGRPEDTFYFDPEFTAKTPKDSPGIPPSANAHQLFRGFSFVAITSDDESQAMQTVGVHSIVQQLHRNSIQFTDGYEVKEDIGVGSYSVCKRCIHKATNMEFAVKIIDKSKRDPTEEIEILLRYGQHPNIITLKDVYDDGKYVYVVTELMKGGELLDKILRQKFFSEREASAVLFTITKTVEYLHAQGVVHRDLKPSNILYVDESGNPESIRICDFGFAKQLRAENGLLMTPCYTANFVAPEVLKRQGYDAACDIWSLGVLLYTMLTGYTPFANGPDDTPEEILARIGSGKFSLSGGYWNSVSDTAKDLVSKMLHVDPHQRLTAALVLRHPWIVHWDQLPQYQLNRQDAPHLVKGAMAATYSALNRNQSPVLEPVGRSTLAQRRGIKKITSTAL
UniProt P51812, 68-327 limits assumed: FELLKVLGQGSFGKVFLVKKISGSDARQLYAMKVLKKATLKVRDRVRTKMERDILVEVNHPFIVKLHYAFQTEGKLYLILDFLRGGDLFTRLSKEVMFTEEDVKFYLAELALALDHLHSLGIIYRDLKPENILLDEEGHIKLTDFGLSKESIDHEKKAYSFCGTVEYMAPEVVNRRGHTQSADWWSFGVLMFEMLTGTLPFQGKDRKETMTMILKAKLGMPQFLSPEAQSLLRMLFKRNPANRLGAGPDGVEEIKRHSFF
UniProt P05067, whole entry, looked up: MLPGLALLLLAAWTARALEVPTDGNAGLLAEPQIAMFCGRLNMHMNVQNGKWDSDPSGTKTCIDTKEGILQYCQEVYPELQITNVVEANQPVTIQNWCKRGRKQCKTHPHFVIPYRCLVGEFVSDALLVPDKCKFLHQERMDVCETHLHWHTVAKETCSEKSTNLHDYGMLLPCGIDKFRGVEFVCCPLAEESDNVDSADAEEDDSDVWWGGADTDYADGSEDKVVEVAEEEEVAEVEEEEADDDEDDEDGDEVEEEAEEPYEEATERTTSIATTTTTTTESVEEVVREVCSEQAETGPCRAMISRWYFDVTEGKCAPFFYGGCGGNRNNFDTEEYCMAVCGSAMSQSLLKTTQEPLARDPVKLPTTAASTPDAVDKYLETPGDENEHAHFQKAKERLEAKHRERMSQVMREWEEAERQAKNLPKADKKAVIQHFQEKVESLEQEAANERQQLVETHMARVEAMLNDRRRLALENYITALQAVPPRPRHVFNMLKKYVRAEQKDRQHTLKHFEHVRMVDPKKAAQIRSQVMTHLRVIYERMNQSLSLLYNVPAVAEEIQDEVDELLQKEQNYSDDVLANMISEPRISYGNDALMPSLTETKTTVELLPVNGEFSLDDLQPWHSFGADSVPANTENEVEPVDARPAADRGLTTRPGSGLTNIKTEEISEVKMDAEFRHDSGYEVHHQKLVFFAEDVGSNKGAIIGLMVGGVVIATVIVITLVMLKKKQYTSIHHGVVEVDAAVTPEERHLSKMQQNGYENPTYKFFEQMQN
UniProt P05067, 672-713 limits assumed: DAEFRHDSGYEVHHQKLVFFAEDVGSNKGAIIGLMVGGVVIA
UniProt P10747, whole entry, looked up: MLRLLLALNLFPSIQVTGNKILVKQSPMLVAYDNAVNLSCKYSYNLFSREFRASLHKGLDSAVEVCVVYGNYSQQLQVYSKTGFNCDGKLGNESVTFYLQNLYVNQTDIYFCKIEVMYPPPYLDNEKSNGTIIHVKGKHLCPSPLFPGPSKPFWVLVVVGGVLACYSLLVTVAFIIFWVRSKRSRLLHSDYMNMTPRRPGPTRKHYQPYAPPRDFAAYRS
UniProt P14902, whole entry: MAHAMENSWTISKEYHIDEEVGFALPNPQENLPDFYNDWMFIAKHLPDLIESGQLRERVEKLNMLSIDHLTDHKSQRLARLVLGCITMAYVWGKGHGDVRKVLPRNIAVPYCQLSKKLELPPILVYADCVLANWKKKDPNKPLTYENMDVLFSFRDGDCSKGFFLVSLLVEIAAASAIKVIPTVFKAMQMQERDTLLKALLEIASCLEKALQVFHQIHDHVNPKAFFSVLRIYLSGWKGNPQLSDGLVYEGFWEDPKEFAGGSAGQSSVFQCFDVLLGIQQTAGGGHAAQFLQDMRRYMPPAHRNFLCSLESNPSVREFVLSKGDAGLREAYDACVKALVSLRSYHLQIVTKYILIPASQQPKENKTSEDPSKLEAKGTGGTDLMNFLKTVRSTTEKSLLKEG
UniProt P26038, whole entry, looked up: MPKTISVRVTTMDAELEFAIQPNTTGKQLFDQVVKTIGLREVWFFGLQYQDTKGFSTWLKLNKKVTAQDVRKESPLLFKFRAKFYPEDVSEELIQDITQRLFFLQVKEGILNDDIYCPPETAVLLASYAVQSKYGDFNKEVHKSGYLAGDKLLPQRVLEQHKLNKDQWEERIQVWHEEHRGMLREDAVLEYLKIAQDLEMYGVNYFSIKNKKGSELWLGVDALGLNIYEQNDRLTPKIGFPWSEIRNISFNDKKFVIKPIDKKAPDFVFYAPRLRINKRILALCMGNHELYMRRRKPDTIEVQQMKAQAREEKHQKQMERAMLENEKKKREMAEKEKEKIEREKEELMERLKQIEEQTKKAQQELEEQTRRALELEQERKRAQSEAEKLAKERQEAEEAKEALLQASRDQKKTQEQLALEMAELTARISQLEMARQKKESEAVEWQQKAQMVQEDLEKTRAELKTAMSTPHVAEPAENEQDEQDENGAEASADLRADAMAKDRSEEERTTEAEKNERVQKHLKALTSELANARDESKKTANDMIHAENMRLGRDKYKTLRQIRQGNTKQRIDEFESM
UniProt P11086, whole entry: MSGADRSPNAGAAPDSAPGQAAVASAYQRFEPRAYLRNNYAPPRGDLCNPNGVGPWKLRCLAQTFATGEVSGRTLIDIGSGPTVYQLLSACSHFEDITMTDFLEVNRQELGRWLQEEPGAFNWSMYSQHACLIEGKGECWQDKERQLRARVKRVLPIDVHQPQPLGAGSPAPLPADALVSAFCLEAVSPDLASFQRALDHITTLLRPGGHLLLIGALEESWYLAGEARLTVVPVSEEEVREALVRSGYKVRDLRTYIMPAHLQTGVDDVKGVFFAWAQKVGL
UniProt P29466, whole entry, looked up: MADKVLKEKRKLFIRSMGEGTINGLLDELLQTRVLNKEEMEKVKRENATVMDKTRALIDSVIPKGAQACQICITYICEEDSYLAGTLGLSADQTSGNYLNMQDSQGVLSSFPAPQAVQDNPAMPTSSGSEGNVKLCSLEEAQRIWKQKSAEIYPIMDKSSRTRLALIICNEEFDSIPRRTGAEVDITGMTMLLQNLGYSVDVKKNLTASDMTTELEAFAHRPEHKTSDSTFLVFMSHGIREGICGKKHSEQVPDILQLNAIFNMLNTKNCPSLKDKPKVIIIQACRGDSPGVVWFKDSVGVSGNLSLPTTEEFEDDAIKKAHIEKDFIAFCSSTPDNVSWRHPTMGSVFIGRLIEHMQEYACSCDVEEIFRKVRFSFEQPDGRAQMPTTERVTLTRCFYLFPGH
UniProt O75874, whole entry R132H: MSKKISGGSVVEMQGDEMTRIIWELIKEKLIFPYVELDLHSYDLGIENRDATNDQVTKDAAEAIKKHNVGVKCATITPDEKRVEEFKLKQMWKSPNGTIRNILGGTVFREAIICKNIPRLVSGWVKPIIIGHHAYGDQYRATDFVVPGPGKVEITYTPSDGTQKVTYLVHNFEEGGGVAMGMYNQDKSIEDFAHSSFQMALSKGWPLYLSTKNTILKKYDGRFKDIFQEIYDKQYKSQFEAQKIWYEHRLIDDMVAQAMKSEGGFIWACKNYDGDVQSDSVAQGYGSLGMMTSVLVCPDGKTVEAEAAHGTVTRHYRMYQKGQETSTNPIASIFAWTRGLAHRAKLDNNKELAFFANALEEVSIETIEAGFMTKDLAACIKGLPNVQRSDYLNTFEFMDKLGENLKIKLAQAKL
UniProt P35354, 18-604 limits assumed: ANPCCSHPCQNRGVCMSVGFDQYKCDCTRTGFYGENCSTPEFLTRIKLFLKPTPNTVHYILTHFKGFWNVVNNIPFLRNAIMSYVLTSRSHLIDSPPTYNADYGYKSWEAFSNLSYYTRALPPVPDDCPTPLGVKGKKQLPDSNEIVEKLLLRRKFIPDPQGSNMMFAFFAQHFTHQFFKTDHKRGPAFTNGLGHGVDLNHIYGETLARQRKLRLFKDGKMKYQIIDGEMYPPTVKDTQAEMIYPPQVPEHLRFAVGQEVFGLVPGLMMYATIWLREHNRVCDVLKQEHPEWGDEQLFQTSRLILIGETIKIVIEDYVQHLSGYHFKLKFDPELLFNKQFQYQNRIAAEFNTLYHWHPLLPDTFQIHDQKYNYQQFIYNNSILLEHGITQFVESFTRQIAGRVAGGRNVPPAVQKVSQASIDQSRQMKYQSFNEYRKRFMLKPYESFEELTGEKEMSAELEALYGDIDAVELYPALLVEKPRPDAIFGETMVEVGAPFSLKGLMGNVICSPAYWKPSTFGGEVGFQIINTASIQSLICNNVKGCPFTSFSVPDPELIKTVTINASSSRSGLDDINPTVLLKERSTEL
UniProt O00748, 27-559 limits assumed: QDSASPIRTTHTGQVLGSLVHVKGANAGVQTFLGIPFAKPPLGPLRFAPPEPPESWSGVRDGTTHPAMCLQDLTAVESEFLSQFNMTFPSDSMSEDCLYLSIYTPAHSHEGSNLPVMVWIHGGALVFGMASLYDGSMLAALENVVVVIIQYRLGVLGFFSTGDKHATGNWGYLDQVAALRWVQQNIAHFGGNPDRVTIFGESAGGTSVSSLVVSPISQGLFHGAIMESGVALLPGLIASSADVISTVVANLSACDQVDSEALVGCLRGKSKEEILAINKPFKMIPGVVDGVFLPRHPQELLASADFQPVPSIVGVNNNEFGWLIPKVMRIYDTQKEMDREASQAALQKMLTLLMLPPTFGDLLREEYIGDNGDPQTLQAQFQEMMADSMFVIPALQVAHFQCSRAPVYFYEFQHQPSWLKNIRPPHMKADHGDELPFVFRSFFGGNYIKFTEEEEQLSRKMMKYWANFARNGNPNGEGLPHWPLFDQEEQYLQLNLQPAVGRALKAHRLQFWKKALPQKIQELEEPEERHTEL
UniProt Q8R431, whole entry: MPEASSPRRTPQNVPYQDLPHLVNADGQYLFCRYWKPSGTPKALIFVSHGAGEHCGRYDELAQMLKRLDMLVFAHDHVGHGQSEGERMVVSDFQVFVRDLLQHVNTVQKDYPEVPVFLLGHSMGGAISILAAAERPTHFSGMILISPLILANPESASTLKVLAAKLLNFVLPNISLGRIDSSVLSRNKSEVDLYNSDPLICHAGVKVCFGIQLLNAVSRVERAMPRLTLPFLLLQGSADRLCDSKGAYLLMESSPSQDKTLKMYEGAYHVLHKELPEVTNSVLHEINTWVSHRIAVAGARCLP
UniProt Q9BV23, whole entry: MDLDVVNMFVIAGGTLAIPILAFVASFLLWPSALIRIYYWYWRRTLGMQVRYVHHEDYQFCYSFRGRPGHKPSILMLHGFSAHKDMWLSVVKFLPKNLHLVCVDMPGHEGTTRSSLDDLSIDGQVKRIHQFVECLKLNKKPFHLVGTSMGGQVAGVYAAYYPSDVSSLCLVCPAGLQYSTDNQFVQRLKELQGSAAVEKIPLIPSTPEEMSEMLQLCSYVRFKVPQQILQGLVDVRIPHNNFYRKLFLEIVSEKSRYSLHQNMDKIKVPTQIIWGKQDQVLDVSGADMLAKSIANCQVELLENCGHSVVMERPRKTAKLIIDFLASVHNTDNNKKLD

SMILES	target	assay	system	setting	IC50
O=C(Nc1ccc(-c2nc3ccccc3s2)cc1)C1CCOCC1	Moesin, with CD44 (Homo sapiens, UniProt P26038)	MSN-CD44 interaction, inhibitor, TR-FRET	–	together with: CD44	> 100000 nM
Cc1ccc2oc(-c3c4c(N)n[nH]c(=O)c4nn3-c3ccc(S(C)(=O)=O)cc3)c(C)c2c1	FGFR1	kinase activity, inhibitor, ELISA	–	–	44.8 ± 10.7 nM
CC(C)[C@H](N)c1nc2cc(-c3cc(F)ncc3F)sc2c(=O)[nH]1	CDC7 (Homo sapiens, UniProt O00311)	enzyme activity, inhibitor	–	–	113 ± 4.53 nM
OC[C@H]1[C@@H](O)[C@H](O)[C@@H](O)CN1CCCCCOCCc1ccsc1	Beta-glucosidase (GBA2, Homo sapiens, UniProt Q9HCG7)	inhibitor, 4-methylumbelliferyl glucoside	HEK293T overexpressing GBA2 homogenate	–	1 nM
CC(C)C[C@@H]1[C@H](C(=O)NCCO)C[C@@H]2CN(Cc3ccncc3)CC(=O)N21 (relative stereo)	KDM4C (Homo sapiens, UniProt Q9H3R0)	enzyme activity, inhibitor, AlphaLISA	–	together with: H3K9me3 nucleosome	6840 nM
Cc1ccc(-c2cc(CF)nn2-c2ccc(S(C)(=O)=O)cc2)cc1	PTGS1 (Ovis aries, UniProt P05979)	inhibitor	–	concentration not given	> 4000 nM
Cc1ncc(CCc2ccc3c(c2)c(=O)c(C(N)=O)cn3-c2ccc(F)cc2)cn1	Grm2 (Rattus norvegicus, UniProt P31421)	calcium mobilization, negative allosteric modulator	–	–	215 nM
CC(C)c1nc(-c2cccc(Nc3ncnn4ccc(CN5CCC(N)CC5)c34)c2)no1	AAK1 (Homo sapiens, UniProt Q2M2I8)	–	–	–	21 nM
Cc1ccccc1SCC(=O)Nc1ccc2nc(SCC(=O)NC3CC3)sc2c1	ESR1	reporter gene, antagonist	HEC-1 transfected ERα luciferase reporter	–	> 50000 nM
c1cncc(-c2ccc(-c3cncs3)nc2)c1	ALK (Homo sapiens, UniProt Q9UM73)	ELISA	–	–	58000 nM
COc1cc(Nc2ccnc3ccc(I)cc23)cc(OC)c1OC	PKN3 (Homo sapiens, UniProt Q6P5Z2)	target engagement, NanoBRET	HEK293	–	> 10000 nM
Clc1ccc(C2(c3ccc(-c4ccnc5ccccc45)cc3)CCNCC2)cc1	LATS2 (Homo sapiens, UniProt Q9NRM7)	kinase activity, inhibitor, radiometric HotSpot	–	together with: ATP 10 µM	420 nM
CC(=NNC(=N)N)c1ccc2[nH]c(C(=O)Nc3ccc4cc[nH]c4c3)cc2c1	RPS6KA3	kinase activity, inhibitor, IMAP fluorescence polarization	–	–	> 100000 nM
COc1ccc2[nH]cc(/C=C/c3cccc(F)c3)c2c1	APP amyloid-beta peptide	Aβ42 oligomerisation, ELISA	–	–	> 20000 nM
N#Cc1cnc(Nc2nc3ccccc3o2)nc1-c1cccc(Br)c1	Grm5 (Rattus norvegicus, UniProt P31424)	calcium mobilization, negative allosteric modulator	–	together with: glutamate EC80	> 30000 nM
CCCCNCC1=Cc2cc3c(cc2[C@@H](c2cc(OC)c(OC)c(OC)c2)[C@@H]1C(=O)OC)OCO3	Tubulin alpha/beta heterodimer (Leishmania infantum, UniProt A0A381MCS3+A4HTR0)	tubulin polymerization, inhibitor	–	37 °C, together with: tubulin 1.2 mg/mL	12100 ± 800 nM
CC(=O)N(CC#Cc1cccc(C(N)=O)c1)C[C@H]1C[C@@H](n2ccc3c(Cl)ncnc32)[C@H](O)[C@@H]1O	PNMT (Homo sapiens, UniProt P11086)	enzyme activity, inhibitor, SAHH-coupled fluorescence	–	–	> 100000 nM
S=c1[nH]c2ccccc2s1	MMP2 (Homo sapiens, UniProt P08253)	inhibitor	–	–	102000 ± 12700 nM
CN(C(=O)CSc1nnc(Nc2ccccc2F)s1)c1ccccc1	CD28 with CD80	CD28–CD80 binding, inhibitor, competitive ELISA	–	together with: biotinylated CD80	45200 nM
COC(=O)c1ccc(O[C@H]2CC[C@H](NC(=O)NC34CC5CC(CC(C5)C3)C4)CC2)cc1 (relative stereo)	EPHX2 (Homo sapiens, UniProt P34913)	enzyme activity, inhibitor, fluorescence	–	together with: CMNPC substrate	3.8 nM
CC(=NNC(N)=NO)c1ccc(NC(=O)c2cc3cccc([N+](=O)[O-])c3[nH]2)cc1	RPS6KA3	kinase activity, inhibitor, IMAP fluorescence polarisation	–	60 min	47000 nM
CN1CCN(Cc2ccc(NC(=O)c3cncc(C#Cc4c(N)ncc5ccc(F)cc45)c3)cc2C(F)(F)F)CC1	Kinesin-1 heavy chain/ Tyrosine-protein kinase receptor RET (RET/KIF5B, Homo sapiens, UniProt P07949+P33176, G810D)	cell viability, inhibitor, CellTiter-Glo	Ba/F3 KIF5B-RET G810D	–	6.4 ± 0.34 nM
COc1ccc2[nH]cc(/C=C/c3ccc(OS(=O)(=O)c4ccc(C)cc4)cc3)c2c1	APP amyloid-beta peptide	Aβ42 oligomerisation, ELISA	–	–	3400 nM
CC(C)CNC(=O)CSc1nc2ccc(NC(=O)CSc3ccc(Cl)cc3)cc2s1	ESR1	reporter gene, antagonist	HEC-1 transfected ERα luciferase reporter	–	> 50000 nM
Fc1cnccc1-c1ccc(C2(c3ccc(Cl)cc3)CCNCC2)cc1	LATS1 (Homo sapiens, UniProt O95835)	kinase activity, inhibitor, radiometric HotSpot	–	together with: ATP 10 µM	619 nM
COc1ccc2[nH]cc(/C=C/c3ccc(NC(C)=O)cc3)c2c1	IDO1	enzyme activity, inhibitor	–	–	10500 nM
O=C(CN1C(=O)C=CC1=O)N1CCN(c2cc(N3CCCC3)nc(N3CCCC3)n2)CC1	Caspase-1 (CASP1, Homo sapiens, UniProt P29466)	inhibitor	–	30 min preincubation	144 ± 37 nM
C[C@H](Nc1nc(N[C@@H](C)C2CC2)nc(-c2cccc(C(F)(F)F)n2)n1)C1CC1	IDH1 (Homo sapiens, UniProt O75874, R132H)	enzyme activity, inhibitor	–	mutant heterodimer reverse reaction	14 nM

SMILES	target	assay	system	setting	IC50
CC1(C#Cc2cc(-c3nn(-c4nc(C(=O)O)cs4)c(CC4CC4)c3Cc3ccc(S(N)(=O)=O)c(F)c3)ccc2F)COC1	LDHA (Homo sapiens, UniProt P00338)	enzyme activity, inhibitor	–	–	4 nM
CCOC(=O)C(C(=O)/C=C/c1ccc(O)c(OC(F)(F)F)c1)C(=O)/C=C/c1ccc(O)c(OC(F)(F)F)c1	Amyloid-beta precursor protein, Aβ aggregates (APP, Homo sapiens, UniProt P05067)	binding, thioflavin T competition	–	–	130 nM
O=C(O)CC[C@H](NC(=O)c1cc(C(=O)O)cc([C@H]2CCN[C@@H]2C(=O)O)c1)C(=O)O	Grin2a with GluN1	ion current, antagonist, two-electrode voltage clamp	Xenopus oocytes	GluN1/GluN2A, together with: glycine 100 µM and glutamate 1 µM	610 ± 60 nM
N#Cc1ccc2[nH]cc(/C=C/c3cccc(F)c3)c2c1	IDO1	enzyme activity, inhibitor	–	–	1800 nM
NCCCSc1c2cc(O)ccc2nc2ccc(O)cc12	HASPIN (Homo sapiens, UniProt Q8TF76)	inhibitor, TR-FRET	–	together with: histone H3 peptide	44 nM
N#Cc1ccc(S(=O)(=O)NC[C@H]2OC(O)[C@H](NC(=O)c3cccc(-c4ccccc4)c3)[C@@H](O)[C@@H]2O)cc1 (stereo partly shown)	Hexokinase-1 (Homo sapiens, UniProt P19367)	enzyme activity, inhibitor, G6PDH-coupled	–	together with: ATP 1.5 mM, glucose 0.225 mM	4.95 ± 0.53 nM
CC(C)[C@H](NC(=O)c1cc(C(=O)O)cc([C@H]2CCN[C@@H]2C(=O)O)c1)C(=O)O	AMPA receptor (rat)	binding, radioligand binding	rat cortical synaptosomes	together with: [3H]AMPA	27000 nM
COc1ccc(-c2nc(S(C)(=O)=O)nn2-c2ccc(OC)cc2)cc1	PTGS2 (Homo sapiens, UniProt P35354)	PGE2 production, inhibitor, enzyme immunoassay	human whole blood	–	> 1000 nM
Cc1ccc(-c2cc(C(F)(F)F)c(C#N)c(SCC(=O)Nc3ccccc3F)n2)cc1	TAAR1 (Homo sapiens, UniProt Q96RJ0)	–	–	–	> 10000 nM
O=C(c1ccc(O)c(Br)c1)N1Cc2ccccc2C1	HSP90AB1 (Homo sapiens, UniProt P08238)	binding, fluorescence polarization	–	together with: FITC-geldanamycin tracer	> 100000 nM
O=C(O)c1cc(C(=O)N2CCC[C@H]2C(=O)O)cc([C@H]2CCN[C@@H]2C(=O)O)c1	Grin2a with GluN1	ion current, antagonist, two-electrode voltage clamp	Xenopus oocytes	GluN1/GluN2A, together with: glycine 100 µM and glutamate 1 µM	1000 ± 60 nM
O=C(CCCn1c(=S)[nH]c2ccccc2c1=O)N1CCN(c2ccc(Cl)c(Cl)c2)CC1	ESR1	reporter gene, antagonist	HEC-1 cells transfected with ERα	together with: estradiol 1 nM	5500 nM
COc1cc2c(cc1OC)C(=O)C(=Cc1ccccc1OC(=O)N(C)C)C2	Cocaine esterase (CES2, Homo sapiens, UniProt O00748)	intracellular enzyme activity	HepG2	1 h, together with: fluorogenic substrate 10 µM	3.63 nM
COc1ccc(CC(=O)OCc2ccc(-n3cccn3)cc2)cc1F	CD28 with CD80	B7-1 binding, inhibitor, competitive ELISA	–	–	22400 ± 6800 nM
COc1ccc(-c2noc(C3CN(C(=O)OC(C(F)(F)F)C(F)(F)F)C3)n2)cc1	Monoglyceride lipase (Rattus norvegicus, UniProt Q8R431)	enzyme activity, inhibitor	rat brain cytosol	1 h preincubation, together with: [3H]2-OG substrate	8.4 ± 0.2 nM
N#Cc1ccc2[nH]cc(/C=C/c3cccnc3)c2c1	IDO1	enzyme activity, inhibitor	–	–	> 100000 nM
O=C(Nc1ccc(-c2nc3ccc(NC(=O)C4CCOCC4)cc3s2)cc1)C1CCOCC1	SYK with FCER1G	protein binding, inhibitor, TR-FRET	–	–	> 20000 nM
Nc1ccc([N+](=O)[O-])cc1-c1nc2ccccc2[nH]c1=O	Protein diaphanous homolog 1, FH2 domain (Diaph1, Mus musculus, UniProt O08808)	actin assembly, inhibitor, pyrene-actin polymerization	–	–	2600 nM
COc1ccc2c(c1)CN(C(=O)OC(C(F)(F)F)C(F)(F)F)C2	ABHD6 (Homo sapiens, UniProt Q9BV23)	inhibitor, fluorescence	–	–	8 nM and 8.3 nM
O=C(NO)c1cccc(F)c1	HDAC6 (Homo sapiens, UniProt Q9UBN7)	enzyme activity, inhibitor, electrophoretic mobility shift	–	together with: FAM-RHKK(Ac)-NH2 1 µM	505 nM
COc1ccc(C(=O)Nc2ccc(-c3nc4ccccc4s3)cc2)cc1	SYK with FCER1G	protein binding, inhibitor, TR-FRET	–	–	> 100000 nM
CN1CC[C@H](c2c(O)cc(O)c3c(=O)cc(-c4ccccc4F)oc23)[C@H](O)C1	PRKACA (Homo sapiens, UniProt P17612)	–	–	ATP at Km	> 10000 nM
CC(C)CNC(=O)CSc1nc2ccc(NC(=O)CSc3cccc(C(F)(F)F)c3)cc2s1	ESR1	reporter gene, antagonist	HEC-1 transfected ERα luciferase reporter	–	> 50000 nM
O=C(NCc1ccc(-c2cnco2)cc1)[C@@H]1C[C@@H](O)CN1C(=O)c1cccc(O)c1	von Hippel-Lindau disease tumor suppressor, with elongin B, C (VHL, Homo sapiens, UniProt P40337)	binding, fluorescence polarization	–	10% DMSO, together with: FAM-HIF1α peptide tracer	23400 ± 400 nM
COc1cc(-c2nc3sc4cc(-c5ccccc5)ccc4c3c(=O)[nH]2)ccc1OCC(=O)O	FGFR1	kinase activity, inhibitor, AlphaScreen	–	together with: biotinylated peptide substrate	75000 nM
O=C(Nc1ccc(Cl)cc1)C(NS(=O)(=O)c1cccs1)c1ccccc1 (single isomer, unassigned)	Uracil nucleotide/cysteinyl leukotriene receptor, long isoform (GPR17, Homo sapiens, UniProt Q13304)	calcium mobilization, antagonist	1321-N1	–	12600 ± 280 nM
CN1CCC[C@@H]1C(=O)N[C@@H](Cc1ccccc1)B(O)O	PSMB6/PSMB7, caspase-like site (Homo sapiens, UniProt P28072+Q99436)	β1c enzyme activity, inhibitor	–	together with: Z-LLE-AMC	> 10000 nM

Excerpt of the above:
SMILES	target	assay	system	setting	IC50
CC(C)c1nc(-c2cccc(Nc3ncnn4ccc(CN5CCC(N)CC5)c34)c2)no1	AAK1 (Homo sapiens, UniProt Q2M2I8)	–	–	–	21 nM
CC(C)CNC(=O)CSc1nc2ccc(NC(=O)CSc3ccc(Cl)cc3)cc2s1	ESR1	reporter gene, antagonist	HEC-1 transfected ERα luciferase reporter	–	> 50000 nM
COc1ccc(CC(=O)OCc2ccc(-n3cccn3)cc2)cc1F	CD28 with CD80	B7-1 binding, inhibitor, competitive ELISA	–	–	22400 ± 6800 nM
COc1cc(Nc2ccnc3ccc(I)cc23)cc(OC)c1OC	PKN3 (Homo sapiens, UniProt Q6P5Z2)	target engagement, NanoBRET	HEK293	–	> 10000 nM
O=C(O)CC[C@H](NC(=O)c1cc(C(=O)O)cc([C@H]2CCN[C@@H]2C(=O)O)c1)C(=O)O	Grin2a with GluN1	ion current, antagonist, two-electrode voltage clamp	Xenopus oocytes	GluN1/GluN2A, together with: glycine 100 µM and glutamate 1 µM	610 ± 60 nM
CCCCNCC1=Cc2cc3c(cc2[C@@H](c2cc(OC)c(OC)c(OC)c2)[C@@H]1C(=O)OC)OCO3	Tubulin alpha/beta heterodimer (Leishmania infantum, UniProt A0A381MCS3+A4HTR0)	tubulin polymerization, inhibitor	–	37 °C, together with: tubulin 1.2 mg/mL	12100 ± 800 nM
Fc1cnccc1-c1ccc(C2(c3ccc(Cl)cc3)CCNCC2)cc1	LATS1 (Homo sapiens, UniProt O95835)	kinase activity, inhibitor, radiometric HotSpot	–	together with: ATP 10 µM	619 nM
COc1ccc2[nH]cc(/C=C/c3cccc(F)c3)c2c1	APP amyloid-beta peptide	Aβ42 oligomerisation, ELISA	–	–	> 20000 nM
c1cncc(-c2ccc(-c3cncs3)nc2)c1	ALK (Homo sapiens, UniProt Q9UM73)	ELISA	–	–	58000 nM
